Measured values collected from several papers.
Compare with care: the assays were run in different laboratories. ± gives the spread as reported.
Cell line: BV-2

SMILES	assay	conditions	how to read	quantity	value
O=[N][Fe]1([N]=O)[S](CCO)[Fe]([N]=O)([N]=O)[S]1CCO	cell growth or viability, CCK-8			IC50	11.7 µM
CC[C@@]12CCc3[nH]c4ccccc4c3CCN(C[C@H]3O[C@H]31)C2	NO production	3 µM, 1 h, 24 h stimulation, added: LPS 800 ng/mL	reference: LPS control	inhibition	39.6 ± 5.4%
CC[C@H]1CC[C@H]2[C@@H]3C[C@@H](O)[C@@]4(O)C[C@H](N)CC[C@]4(C)[C@H]3CC[C@]12C	nuclear intensity, high-content imaging			IC50	1 µM
CCCCCCCCCCCCCCCC(=O)OCC(CSC[C@H](N)C(=O)N[C@@H](CO)C(=O)N[C@@H](CCCCN)C(=O)N[C@@H](CCCCN)C(=O)N[C@@H](CCCCN)C(=O)N[C@@H](CCCCN)C(=O)NCCCCCC(=O)N[C@@H](CCCCN)C(=O)N[C@@H](CC(C)C)C(=O)N[C@H](C(=O)N[C@@H](Cc1ccccc1)C(=O)N[C@@H](Cc1ccccc1)C(=O)N[C@@H](Cc1ccc2ccccc2c1)C(=O)O)C(C)C)OC(=O)CCCCCCCCCCCCCCC (stereo partly shown)	RT-qPCR, refers to: Msr1	1.0 µM, 12 h		mRNA level	increased
COc1cc(O)c(-c2c(O)cc(OC)c3c2ccc2cc(O)ccc23)c2ccc3ccccc3c12	ELISA, refers to: MCP-1	concentration not given, pretreatment, added: LPS		cytokine release	decreased
CC[C@@]12CC(O)c3[nH]c4ccccc4c3CCN(C[C@H]3O[C@H]31)C2 (stereo partly shown)	cell growth or viability, MTT			IC50	> 100 µM
COc1cc(O)cc2c1-c1ccc(O)c(OC)c1CC2	ELISA, refers to: IL-6	concentration not given, pretreatment, added: LPS		cytokine release	decreased
CC[C@@]12CCc3c(c4ccccc4n3C)CCN(C[C@H](O)[C@H]1O)C2	NO production	1.5 µM, 1 h, 24 h stimulation, added: LPS 800 ng/mL	reference: LPS control	inhibition	37.8 ± 4.7%
COc1cc(/C=C/C(=O)O)ccc1O	NO release, inhibitor, Griess	5 µM, LPS-stimulated		inhibition	51.9%
COc1cc(Cn2ccc3cc(C(=O)NCC45CC6CC(CC(C6)C4)C5)ccc32)ccc1C(=O)NO	amyloid phagocytosis	1000 nM, 3 h, added: Aβ42 10 nM		phagocytosing cells	increased

A few entries again:
SMILES	assay	conditions	how to read	quantity	value
COc1cc(O)c(-c2c(O)cc(OC)c3c2ccc2cc(O)ccc23)c2ccc3ccccc3c12	ELISA, refers to: MCP-1	concentration not given, pretreatment, added: LPS		cytokine release	decreased
